Published values collected from several papers.
Method: steady-state kinetics
B1: Saccharopine reductase C154S (Saccharomyces cerevisiae, UniProt P38999); chain MGKNVLLLGSGFVAQPVIDTLAANDDINVTVACRTLANAQALAKPSGSKAISLDVTDDSALDKVLADNDVVISLIPYTFHPNVVKSAIRTKTDVVTSSYISPALRELEPEIVKAGITVMNEIGLDPGIDHLYAVKTIDEVHRAGGKLKSFLSYSGGLPAPEDSDNPLGYKFSWSSRGVLLALRNSAKYWKDGKIETVSSEDLMATAKPYFIYPGYAFVCYPNRDSTLFKDLYHIPEAETVIRGTLRYQGFPEFVKALVDMGMLKDDANEIFSKPIAWNEALKQYLGAKSTSKEDLIASIDSKATWKDDEDRERILSGFAWLGLFSDAKITPRGNALDTLCARLEELMQYEDNERDMVVLQHKFGIEWADGTTETRTSTLVDYGKVGGYSSMAATVGYPVAIATKFVLDGTIKGPGLLAPYSPEINDPIMKELKDKYGIYLKEKTVA
B2: cyc1 L72V (Streptomyces coelicolor, UniProt Q9K499); chain MHAFPHGTTATPTAIAVPPSLRLPVIEAAFPRQLHPYWPKLQETTRTWLLEKRLMPADKVEEYADGLCYTDVMAGYYLGAPDEVLQAIADYSAWFFVWDDRHDRDIVHGRAGAWRRLRGLLHTALDSPGDHLHHEDTLVAGFADSVRRLYAFLPATWNARFARHFHTVIEAYDREFHNRTRGIVPGVEEYLELRRLTFAHWIWTDLLEPSSGCELPDAVRKHPAYRRAALLSQEFAAWYNDLCSLPKEIAGDEVHNLGISLITHHSLTLEEAIGEVRRRVEECITEFLAVERDALRFADELADGTVRGKELSGAVRANVGNMRNWFSSVYWFHHESGRYMVDSWDDRSTPPYVNNEAAGEK
B3: GTPBP3 E159V (Homo sapiens, UniProt Q969Y2); chain TRRSSGAPAPGSGATIFALSSGQGRCGIAVIRTSGPASGHALRILTAPRDLPLARHASLRLLSDPRSGEPLDRALVLWFPGPQSFTGEDCVEFHVHGGPAVVSGVLQALGSVPGLRPAEAGEFTRRAFANGKLNLTEVVGLADLIHAETEAQRRQALRQLDGELGHLCRGWAETLTKALAHVEAYIDFGEDDNLEEGVLEQADIEVRALQVALGAHLRDARRGQRLRSGVHVVVTGPPNAGKSSLVNLLSRKPVSIVSPEPGTTRDVLETPVDLAGFPVLLSDTAGLREGVGPVEQEGVRRARERLEQADLILAMLDASDLASPSSCNFLATVVASVGAQSPSDSSQRLLLVLNKSDLLSPEGPGPGPDLPPHLLLSCLTGEGLDGLLEALRKELAAVCGDPSTDPPLLTRARHQHHLQGCLDALGHYKQSKDLALAAEALRVARGHLTRLTGGGGTEEILDIIFQDFCVGK
B4: BaiA2 (Clostridium scindens, UniProt P19337); chain MNLVQDKVTIITGGTRGIGFAAAKIFIDNGAKVSIFGETQEEVDTALAQLKELYPEEEVLGFAPDLTSRDAVMAAVGQVAQKYGRLDVMINNAGITSNNVFSRVSEEEFKHIMDINVTGVFNGAWCAYQCMKDAKKGVIINTASVTGIFGSLSGVGYPASKASVIGLTHGLGREIIRKNIRVVGVAPGVVNTDMTNGNPPEIMEGYLKALPMKRMLEPEEIANVYLFLASDLASGITATTVSVDGAYRP
B5: sacB Y439F (Priestia megaterium, UniProt D5DC07); chain KGNDSKDFNNSYGISHITRDNMVKIPQQQNSDQFKVPAFDESTIKNIASAKGKNASGNTIDLDVWDSWPLQNADGTVATYHGYQIVFALAGDPKDSNDTSVYLFYKKAGDKSIDSWKNAGRVFKDSDKFVPNDPHLKNQTQEWSGSGTLTKDGKVRLFYTDYSGKQYGKQTLTTAQVNMSQPNDNTLKVDGVEDYKSIFDGDGKIYQTVQQFIDEGGYDTGDNHTLRDPHYIEDNGHKYLVFEANTGTEDGYQGEDSLYNRAYYGGNNPFFQSEKKKLLEGSNKEKASLANGALGIIELNDDYTLKKVMKPLITSNTVTDEIERANIFKKDGKWYLFTDSRGSKMTIDGIGQDDVYMLGYVSNTLTGKYKPLNDTGLVLHMDLDPNDKTFTYSHFAVPQTKGDNVVITSFMTNRGFYEDNHSTFAPSFLVNIDGSKTSVVKDRVLEQGQLTVDED
B6: enzyme (Schizosaccharomyces pombe, UniProt Q9Y7P0); chain MFTGLVEAIGVVKDVQGTIDNGFAMKIEAPQILDDCHTGDSIAVNGTCLTVTDFDRYHFTVGIAPESLRLTNLGQCKAGDPVNLERAVLSSTRMGGHFVQGHVDTVAEIVEKKQDGEAIDFTFRPRDPFVLKYIVYKGYIALDGTSLTITHVDDSTFSIMMISYTQSKVIMAKKNVGDLVNVEVDQIGKYTEKLVEAHIADWIKKTQA
B7: LYPLA1 (Homo sapiens, UniProt O75608); chain MCGNNMSTPLPAIVPAARKATAAVIFLHGLGDTGHGWAEAFAGIRSSHIKYICPHAPVRPVTLNMNVAMPSWFDIIGLSPDSQEDESGIKQAAENIKALIDQEVKNGIPSNRIILGGFSQGGALSLYTALTTQQKLAGVTALSCWLPLRASFPQGPIGGANRDISILQCHGDCDPLVPLMFGSLTVEKLKTLVNPANVTFKTYEGMMHSSCQQEMMDVKQFIDKLLPPID
B8: clpA (Escherichia coli, UniProt P0ABH9); chain MLNQELELSLNMAFARAREHRHEFMTVEHLLLALLSNPSAREALEACSVDLVALRQELEAFIEQTTPVLPASEEERDTQPTLSFQRVLQRAVFHVQSSGRNEVTGANVLVAIFSEQESQAAYLLRKHEVSRLDVVNFISHGTRKDEPTQSSDPGSQPNSEEQAGGEERMENFTTNLNQLARVGGIDPLIGREKELERAIQVLCRRRKNNPLLVGESGVGKTAIAEGLAWRIVQGDVPEVMADCTIYSLDIGSLLAGTKYRGDFEKRFKALLKQLEQDTNSILFIDEIHTIIGAGAASGGQVDAANLIKPLLSSGKIRVIGSTTYQEFSNIFEKDRALARRFQKIDITEPSIEETVQIINGLKPKYEAHHDVRYTAKAVRAAVELAVKYINDRHLPDKAIDVIDEAGARARLMPVSKRKKTVNVADIESVVARIARIPEKSVSQSDRDTLKNLGDRLKMLVFGQDKAIEALTEAIKMARAGLGHEHKPVGSFLFAGPTGVGKTEVTVQLSKALGIELLRFDMSEYMERHTVSRLIGAPPGYVGFDQGGLLTDAVIKHPHAVLLLDEIEKAHPDVFNILLQVMDNGTLTDNNGRKADFRNVVLVMTTNAGVRETERKSIGLIHQDNSTDAMEEIKKIFTPEFRNRLDNIIWFDHLSTDVIHQVVDKFIVELQVQLDQKGVSLEVSQEARNWLAEKGYDRAMGARPMARVIQDNLKKPLANELLFGSLVDGGQVTVALDKEKNELTYGFQSAQKHKAEAAH
B9: protein (Rheum palmatum, UniProt A0A7L9A2S6); chain MKKTELVFLPAPAPGHLVSTVEFSKRLIARDARLTVTILVISSPFSRGAQTNPSPGIRYVTLPQVDVPQHLMKDSIEHTISVYIASHAPHVRDAVAALQTESTVHVAGLFLDMFCTPMIDVANELGLPSYVFFCSSAGFLGLLLHLPVHSQPRFDETGLDVLIPSFQNPVPTRVLPRFGFNELGYKSFMDHAKRFGETKGIIINTYAELEPYALKSLLDAYDTAPVYAVGPVLDLRSQVHMPCDAAERARIMGWLDKQPDSSVVFLCFGSGGSFSEHQIREISKGLSQSGQRFLWSVRKPPTGGLVKPTEYTETELRSVLGDEFWSLLDEGERGVVCGWAPQVEVLGHKSVGAFVSHCGWNSTLESLWFGKPMVTWPLYAEQQMNAFELVKELGIAVELTLDYRLHSSEVVEAREVERAVRRVMDENNPVRYKVKEMAEVCRATLVEGGSSFVCVDRLISGFLGEIN
Chain of UniProt Q29437 (whole entry, looked up): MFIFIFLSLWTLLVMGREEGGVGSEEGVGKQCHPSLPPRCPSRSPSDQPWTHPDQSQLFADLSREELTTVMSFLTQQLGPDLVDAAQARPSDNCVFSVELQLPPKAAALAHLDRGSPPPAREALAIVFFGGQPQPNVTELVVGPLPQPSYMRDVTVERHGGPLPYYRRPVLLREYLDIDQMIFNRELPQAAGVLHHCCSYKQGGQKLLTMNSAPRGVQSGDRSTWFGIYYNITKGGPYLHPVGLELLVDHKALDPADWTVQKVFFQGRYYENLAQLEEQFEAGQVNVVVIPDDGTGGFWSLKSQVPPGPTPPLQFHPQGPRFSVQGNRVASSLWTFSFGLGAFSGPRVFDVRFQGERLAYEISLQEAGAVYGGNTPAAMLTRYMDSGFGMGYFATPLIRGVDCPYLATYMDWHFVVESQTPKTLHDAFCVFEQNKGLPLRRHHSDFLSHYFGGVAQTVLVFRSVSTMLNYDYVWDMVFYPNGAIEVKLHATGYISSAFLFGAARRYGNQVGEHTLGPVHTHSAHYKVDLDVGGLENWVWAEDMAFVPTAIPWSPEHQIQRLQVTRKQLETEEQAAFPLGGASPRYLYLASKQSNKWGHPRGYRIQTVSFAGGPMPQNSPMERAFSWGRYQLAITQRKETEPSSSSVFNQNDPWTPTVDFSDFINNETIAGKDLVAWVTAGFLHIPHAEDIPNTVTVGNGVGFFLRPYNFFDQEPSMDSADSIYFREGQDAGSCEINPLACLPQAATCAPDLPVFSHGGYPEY
Chain of UniProt H6U1I8 (whole entry, looked up): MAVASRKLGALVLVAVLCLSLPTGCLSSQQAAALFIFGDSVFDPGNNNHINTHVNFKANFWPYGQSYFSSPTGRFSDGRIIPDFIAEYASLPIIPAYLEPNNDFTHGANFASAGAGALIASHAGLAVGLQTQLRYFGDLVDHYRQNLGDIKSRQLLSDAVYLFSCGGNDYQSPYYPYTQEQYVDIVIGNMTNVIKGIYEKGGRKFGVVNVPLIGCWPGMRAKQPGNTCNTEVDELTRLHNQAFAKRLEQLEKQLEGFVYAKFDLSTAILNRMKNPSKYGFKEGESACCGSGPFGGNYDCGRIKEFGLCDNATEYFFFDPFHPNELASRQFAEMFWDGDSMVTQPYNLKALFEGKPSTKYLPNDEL

The Km of `B1 (Saccharopine reductase C154S)` is reported as 280 µM (NC(=O)c1ccc[n+]([C@@H]2O[C@H](COP(=O)(O)OP(=O)(O)OC[C@H]3O[C@@H](n4cnc5c(N)ncnc54)[C@H](OP(=O)(O)O)[C@@H]3O)[C@@H](O)[C@H]2O)c1; pH 9, 25 °C, together with: saccharopine).
`Plasma amine oxidase (Bos taurus, UniProt Q29437)` gave a Km of 0.122 µM (NCCOc1ccc2cc(CN)ccc2c1; pH 7.2, 30 °C).
The Km of `enzyme (Polygonum cuspidatum, UniProt B2MWQ7)` is reported as 79.9 µM (CC(C)(COP(=O)(O)OP(=O)(O)OC[C@H]1O[C@@H](n2cnc3c(N)ncnc32)[C@H](O)[C@@H]1OP(=O)(O)O)[C@@H](O)C(=O)NCCC(=O)NCCSC(=O)CC(=O)O; pH 7, 45 °C).
With `c3712 (Escherichia coli, UniProt A0A0H2VDD9)` the Km was 94 µM (CCCCCCCC(=O)O; pH 7.5, 30 °C).
`B2 (cyc1 L72V)` has a Km of 0.6 µM (CC(C)=CCC/C(C)=C/CC/C(C)=C/CO[P@@](=O)(O)OP(=O)(O)O; pH 6.5, 30 °C, together with: MgCl2 10 mM).
The Km of `enzyme (Tanacetum cinerariifolium, UniProt H6U1I8)` is reported as 376 µM (C=C/C=C\CC1=C(C)[C@@H](O)CC1=O; pH 7.5, 25 °C).
With `B3 (GTPBP3 E159V)` the Km was 26.1 µM (Nc1nc2c(ncn2[C@@H]2O[C@H](COP(=O)(O)OP(=O)(O)OP(=O)(O)O)[C@@H](O)[C@H]2O)c(=O)[nH]1; pH 8, 37 °C, KCl 300 mM).
For `B4 (BaiA2)`, the Km was 1.8 µM (C[C@H](CCC(=O)SCCNC(=O)CCNC(=O)[C@H](O)C(C)(C)COP(=O)(O)OP(=O)(O)OC[C@H]1O[C@@H](n2cnc3c(N)ncnc32)[C@H](O)[C@@H]1OP(=O)(O)O)[C@H]1CC[C@H]2[C@@H]3[C@H](O)C[C@@H]4CC(=O)CC[C@]4(C)[C@H]3C[C@H](O)[C@]12C; pH 8.7, 37 °C, together with: NADH).
The Km of `B5 (sacB Y439F)` is reported as 92900 µM (OC[C@H]1O[C@@](CO)(O[C@H]2O[C@H](CO)[C@@H](O)[C@H](O)[C@H]2O)[C@@H](O)[C@@H]1O; pH 6.6).
With `B6 (enzyme)` the Km was 5.7 µM (Cc1nc2c(=O)[nH]c(=O)nc-2n(C[C@H](O)[C@H](O)[C@H](O)CO)c1C; pH 7.2, 37 °C, apparent).
`B7 (LYPLA1)` gave a Km of 14.5 µM (CN(C)c1ccc(/N=N/c2ccc(C(=O)NCCCn3cc(CCCCCCCCCCCCCCCC(=O)SC[C@H](NC(=O)c4cc5ccc(O)cc5oc4=O)C(=O)N4CCOCC4)nn3)cc2)cc1; pH 7.4, 37 °C).
`B8 (clpA)` gave a Km of 134 µM (Nc1ncnc2c1ncn2[C@@H]1O[C@H](CO[P@](=O)(O)O[P@](=O)(O)O[P@@](=O)(O)S)[C@@H](O)[C@H]1O; pH 7.5, 25 °C, NaCl 300 mM, no ClpP, no polypeptide, together with: MgCl2 10 mM).
With `protein (Actinidia deliciosa, UniProt C7SHN9)` the Km was 2.8 µM (CC(C)=CCC/C(C)=C/COP(=O)(O)OP(=O)(O)O; pH 7.5, together with: GPP 1-100 µM).
`B9 (protein)` gave a Km of 518 µM (O=c1c(O)c(-c2ccc(O)cc2)oc2cc(O)cc(O)c12; pH 7.5, 35 °C, apparent, together with: UDP-glucose).
